Earlier results that unrelated publications cite.
Sequence of UniProt Q6P3R8 (whole entry, looked up): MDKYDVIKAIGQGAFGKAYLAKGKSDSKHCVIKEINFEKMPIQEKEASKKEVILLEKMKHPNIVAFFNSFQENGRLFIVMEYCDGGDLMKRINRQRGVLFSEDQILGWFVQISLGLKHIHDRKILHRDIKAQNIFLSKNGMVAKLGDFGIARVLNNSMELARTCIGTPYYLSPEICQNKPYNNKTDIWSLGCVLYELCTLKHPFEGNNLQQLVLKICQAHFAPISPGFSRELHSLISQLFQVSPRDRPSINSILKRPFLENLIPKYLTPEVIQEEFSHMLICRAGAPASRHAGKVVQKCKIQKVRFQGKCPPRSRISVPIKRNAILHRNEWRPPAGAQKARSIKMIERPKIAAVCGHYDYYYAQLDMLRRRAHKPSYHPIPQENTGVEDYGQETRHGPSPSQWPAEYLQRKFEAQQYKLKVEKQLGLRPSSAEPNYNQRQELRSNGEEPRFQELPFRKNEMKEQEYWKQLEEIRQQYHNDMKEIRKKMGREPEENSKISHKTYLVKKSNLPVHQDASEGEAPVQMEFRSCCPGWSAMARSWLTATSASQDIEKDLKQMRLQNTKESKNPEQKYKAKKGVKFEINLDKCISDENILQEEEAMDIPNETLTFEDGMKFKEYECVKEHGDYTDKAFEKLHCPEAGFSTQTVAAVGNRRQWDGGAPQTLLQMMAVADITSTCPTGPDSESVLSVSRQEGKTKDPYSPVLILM

COCCCC/C(=N\OCCN)c1ccc(C(F)(F)F)cc1  AUC (human; oral, 100 mg single dose): 805 ng·h/mL
Nc1cc(C(F)(F)F)c(-c2nc(N3CCOCC3)nc(N3CCOCC3)n2)cn1  remaining activity (NEK5 (Homo sapiens, UniProt Q6P3R8); enzyme activity; 10 µM; reference: untreated): 100%
O=C(c1cc(Cc2n[nH]c(=O)c3ccccc23)ccc1F)N1CCN(C(=O)C2CC2)CC1  AUC (human; oral, 100 mg tablet, single dose, together with: itraconazole 0 mg): 14800 ng·h/mL
C#C[C@]1(O)CC[C@H]2[C@@H]3CCC4=CC(=O)CC[C@@H]4[C@H]3CC[C@@]21C  AUC (human; oral, 0.3 mg): 22.1 ng·h/mL
CCC(C)n1ncn(-c2ccc(N3CCN(c4ccc(OCC5COC(Cn6cncn6)(c6ccc(Cl)cc6Cl)O5)cc4)CC3)cc2)c1=O (centres unmarked)  AUC (human; intravenous, 100 mg): 4300 ng·h/mL
C=CC(=O)Nc1cc(Nc2nccc(-c3cn(C)c4ccccc34)n2)c(OC)cc1N(C)CCN(C)C  AUC (human; 80 mg): 11.9 µM·h
COc1ccc2nc([S@@+]([O-])Cc3ncc(C)c(OC)c3C)[nH]c2c1  AUC (Japanese non-obese humans; intravenous bolus, 20 mg racemic omeprazole): 390 ng⋅h/mL
COc1cc(Nc2c(C#N)cnc3cc(OCCCN4CCN(C)CC4)c(OC)cc23)c(Cl)cc1Cl  AUC (human; 500 mg): 3660 ng·h/mL
O=C(C1CCCCC1)N1CC(=O)N2CCc3ccccc3[C@@H]2C1  AUC (human, plasma; oral, 60 mg/kg, orally dispersible tablet): 523 ng·h/mL
CN(C)C/C=C/C(=O)Nc1cc2c(Nc3ccc(F)c(Cl)c3)ncnc2cc1O[C@H]1CCOC1  AUC (human; 40 mg): 631 ng·h/mL
OC(Cn1cncn1)(Cn1cncn1)c1ccc(F)cc1F  AUC (human; intravenous, 100 mg): 56800 ng·h/mL

For quick reference, copied from above:
COCCCC/C(=N\OCCN)c1ccc(C(F)(F)F)cc1  AUC (human; oral, 100 mg single dose): 805 ng·h/mL
